Measurements pooled from the literature.
Every numbered part comes from another study and shows a few of its results, in no order.

Study 1
Target: Ras GTPase-activating protein-binding protein 1, full length (G3BP1, Homo sapiens, UniProt Q13283)
Sequence of UniProt Q13283 (whole entry, looked up): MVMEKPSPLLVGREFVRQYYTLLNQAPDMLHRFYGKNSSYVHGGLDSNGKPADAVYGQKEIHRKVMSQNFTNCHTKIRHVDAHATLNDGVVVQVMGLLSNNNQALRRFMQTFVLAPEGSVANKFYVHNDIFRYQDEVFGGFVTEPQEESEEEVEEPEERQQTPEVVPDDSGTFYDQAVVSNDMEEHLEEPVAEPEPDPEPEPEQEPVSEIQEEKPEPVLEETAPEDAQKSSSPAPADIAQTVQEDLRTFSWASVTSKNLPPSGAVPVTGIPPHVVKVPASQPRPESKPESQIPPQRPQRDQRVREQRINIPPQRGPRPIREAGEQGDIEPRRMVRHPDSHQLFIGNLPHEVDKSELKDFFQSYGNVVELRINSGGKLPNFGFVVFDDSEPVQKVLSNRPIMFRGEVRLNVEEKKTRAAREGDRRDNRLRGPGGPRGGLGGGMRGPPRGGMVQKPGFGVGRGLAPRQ
Technique: RNA Bind-n-Seq
Molecule type: RNA
Matrix: in vitro
Tested at: 200 nM
Notes: whole 134-nt RNA, ends assumed
Together with: 150 mM KCl
Relative to: input library
Direction: higher = stronger binding
Quantity: log2 enrichment
Constant ends, left off below: GGGAGUUCUACAGUCCGACGAUC … UGGAAUUCUCGGGUGUCAAGG
GUCCUGUGCUACACAUCGUAUGUACCGAAUCGGGGAAAAGGGGAAAAGGGAAAAGGGGAAAGUAUUAUGUUACGCCGUUCGGAUCUGCAC: 0.283
CCUGUGCUACACAUCGUAUGUACCGAAUCGGGGAAAGGGGUUUUUUUGGGGUUUUUGGGGAAAGUAUUAUGUUACGCCGUUCGGAUCUGC: 0.168
CAAGUCCUGUGCUACACAUCGUAUGUACCGAAUCGGUUUUUGGUUUUUUUGGUGGAAAGUAUUAUGUUACGCCGUUCGGAUCUGCACUUC: -0.96
CAAGUCCUGUGCUACACAUCGUAUGUACCGAAUCGGUUUUUGGUGGAAAAAAAGGAAAGUAUUAUGUUACGCCGUUCGGAUCUGCACUUC: -0.931
AGUCCUGUGCUACACAUCGUAUGUACCGAAUCAAAUUUAAAUUUAAACCCCCCCAAAAAAGUAUUAUGUUACGCCGUUCGGAUCUGCACU: -0.0485
GUCCUGUGCUACACAUCGUAUGUACCGAAUCGGGAAAAAGGGAAAAAGGAAAAAGGGGAAAGUAUUAUGUUACGCCGUUCGGAUCUGCAC: -0.587
CUCAAGUCCUGUGCUACACAUCGUAUGUACCGAAUCGGCCGGCCGGGGCCGGGGAAAGUAUUAUGUUACGCCGUUCGGAUCUGCACUUCC: -0.497
GUCCUGUGCUACACAUCGUAUGUACCGAAUCGGGAAAGGGUUUUUGGGAAAAAAAGGGAAAGUAUUAUGUUACGCCGUUCGGAUCUGCAC: -0.462
UCCUGUGCUACACAUCGUAUGUACCGAAUCGGGGUGGGGAAAAAAAGGGGUUUUUGGGGAAAGUAUUAUGUUACGCCGUUCGGAUCUGCA: 0.76
UUGGAUGAAGAUGGCAAAGUCCUGACCCCGGAGGAGCUGCUCUACCGGGUAAGGGGGCCUCCUCUGCCAGACCCUAGAGACCUCUCUGGG: -0.95
UGGCCCUGGUGGCAUGCGGGGAGGAAGAGGUGGCCUCAUGGAUCGUGGUGGUCCCGGUGGAAUGUUCAGAGGUGGCCCUGGUGGAGACAG: 0.444
CAAGUCCUGUGCUACACAUCGUAUGUACCGAAUCGGGUUUGGGUUUGGGGUUUGGAAAGUAUUAUGUUACGCCGUUCGGAUCUGCACUUC: -0.369
UCAAGUCCUGUGCUACACAUCGUAUGUACCGAAUCGGGUUUGGGUUUGGGAGGGAAAGUAUUAUGUUACGCCGUUCGGAUCUGCACUUCC: 1.03
CCUGUGCUACACAUCGUAUGUACCGAAUCGGCCCCCCCGGCCCCCCCGGGCCCCCCCGGGGAAAGUAUUAUGUUACGCCGUUCGGAUCUG: -0.223

Study 2
Target: Histone acetyltransferase KAT6A, both winged helices, GST fusion (KAT6A, Homo sapiens, UniProt Q92794, residues 1-181)
Technique: protein binding microarray
Molecule type: double-stranded DNA, one strand shown
Matrix: in vitro
Tested at: not given
Notes: 8-mer, flanks averaged, mean of 2 arrays, mostly near background
Relative to: not given
Direction: higher = stronger binding
Quantity: E-score
Target sequence (chain): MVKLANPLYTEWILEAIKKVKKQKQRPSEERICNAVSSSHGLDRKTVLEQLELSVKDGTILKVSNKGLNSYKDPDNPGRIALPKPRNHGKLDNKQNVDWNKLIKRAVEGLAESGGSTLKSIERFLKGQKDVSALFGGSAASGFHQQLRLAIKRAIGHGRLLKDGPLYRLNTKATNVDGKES
TAACAAGA: -0.168
TACGATCA: -0.0506
CACCCCAG: -0.161
GAAGGATA: -0.206
CTTCCGGA: 0.0921
GTTAATTA: 0.0398
CCTGTCGC: 0.0713
ACTCTGTA: 0.00044
AACCTTAT: -0.0118
GAACTTAC: 0.0349
AGACCCTC: -0.0491
ACAGACCC: -0.0639

Study 3
Target: Sal-like protein 4, full length isoform B (SALL4, Homo sapiens, UniProt Q9UJQ4-2, residues 1-616)
Technique: universal PBM
Molecule type: double-stranded DNA, one strand shown
Matrix: in vitro
Tested at: not given
Notes: 8-mer, flanks averaged, mean of replicates
Direction: higher = stronger binding
Quantity: E-score
AGGGTGTC: -0.176
CCGTCCCA: -0.0898
ACAGGTAA: 0.193
GTACGTTA: 0.241
CGTATGTC: 0.0273
CCGGATCA: -0.191
CCAATTAC: 0.0163
CGCCTACG: -0.25
TCACATGA: 0.149
GGCCTTTA: -0.0805
TACCGGTA: -0.096
ACCCAGAC: -0.193
AAATGGAA: 0.134
AATGAGGG: -0.0697
CGGCGTTC: -0.324
AGCGTACA: 0.0165
CAGATTCA: 0.0896

Study 4
Target: RNA binding protein fox-1 homolog 2, RRM domain, GST-SBP tag (RBFOX2, Homo sapiens, UniProt O43251-10, residues 100-194)
Technique: RNA Bind-n-Seq
Molecule type: RNA
Matrix: in vitro
Tested at: 365 nM
Notes: natural RNA segment, single round, ends assumed
Relative to: no-protein control
Direction: higher = stronger binding
Quantity: RBNS enrichment (R)
Constant ends, left off below: GGGAGUUCUACAGUCCGACGAUC … UGGAAUUCUCGGGUGCCAA
Residues (chain): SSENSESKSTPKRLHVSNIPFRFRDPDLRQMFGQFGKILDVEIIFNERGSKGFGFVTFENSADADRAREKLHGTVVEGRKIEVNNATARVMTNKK
UUAUAGUAGUUUUAUAAUCCUGAAAUUCGAAAGCUUUCCCAAUUGCACUUGCAUCUAAACAAAACUGUUGCAGUUUUUACUCUAUUUAUUUUGUUCCCCAUGUUUAUGAA: 8.55
GUCAGAUCAGCUCCUAAGGGGGUGACGCCUGCCCUCCCCAGAGCACUGGGUUGCAGGGGAUUGAAGCCCUCCAAAAGCACUUACGGAUUCUGGUGGGGUGUGUUCCAACU: 0.235
ACUGCAGCCUCCACCACCUGAGUUCAAGCGAUUUUUCUGCCUCAACCUCUCCUGAGUAGCUGGGACUACAGGUGCAUGACACCACACCCAGCUAAUUUUUGUAUUUUUAU: 0.804
CAGACAGACACACUUUUCCACCAGUGUAUUUGAAUUUUAGACCAGUGACCCUGUUUUGUGGCAUUCAUGCAAAACAUGCUGAGGGCUUUGUUCAUCUGGUCAUCGUGUCC: 0.651
AAGACUGUUUUCCUGUGUAAGUGUUGCCCUCUAGAGGUACCUAGCAGUCACCCCACAAGCCUACCAUCACGUCCCCUUCAGAGCUCACCUUGUAUCCUUAAUCCUCAGUA: 0.524
UGUGCUUGUAUUUGCAAGUUGAAUUUUUUUAAUGUUGGUUCCAAAAACAGUGAAUUAGCUGAAAAGAAAUGGAGAAGUGUCUUGGAGAUUUACUGAAAUAGCUAAUUGUC: 0.679
AGUGUCUACCUUGGUACGCAGCCACCUCCUGCAUGCUGUGCAUGUUAUUGGGACUUGUAUUAUAGGUGAUGGUAUGUGAGAAUCCAGUUGGGACUCGCUGUUGCCAUCCU: 1.21
AGGAAGACCCUCCAUCCUCUGGUAUUAACGCCUUAAUGCCCCUGUCUUUUACUGUAAGUUACUUAAGAUCAUUUUUGGAAGCAGGCGUGGUAGAGUCCUGUAAAUGAAUG: 0.452
ACACUCCUGCUCACCCAGCAAGUGCAGCCUCUGGCCCUCCUCUGCUUUUUCACUCCAUCCAGCUUAGAGUCCCCUGCUGGCUUGUCACUCGCCUGCUUUGUGCCAGGCUG: 1.02
GCCCCACCUUCGGCUCUGAUGCCCUUCCCAAAGCCCUUUUCACCCGUGGUCUGACUUGACCCUGGGCCUUUUGGACACAGGUCAGCCUUCUGAUGUUUUCUGGCUGUCUU: 0.349
AUGGGCUGCCCAGGGCUGGAGGGGACGCUGUUCCUCCCGCCGCCACUGCCCAACCUUUCCUGAUAAUCGUGGCAUGCGCCCUUUCCUCUUCCCUGCCCCACCCCCUGGCC: 0.864
UUUUUUUAUAUUAAAAGGUUGAGCCAAAGCCCCCAGUGUUUGUAUUUUGAAGCCAAGCUUCACUUCUAAAGUGCCUACAGAGACUUGUAAAUGAAAAUGCAGCUCUGCAC: 0.625

Study 5
Target: Prothrombin, mature alpha-thrombin (F2, Homo sapiens, UniProt P00734)
Technique: aptamer microarray, sandwich
Molecule type: DNA with 2'F-ANA
Matrix: in vitro
Tested at: 200 nM
Notes: whole 15-mer aptamer, many near background
Together with: Cy3 exosite-II aptamer, 400 nM
Direction: higher = stronger binding
Quantity: mean fluorescence intensity
Oligonucleotide: GGTTGGTGTGGTTGG
2'F-ANA at 1 2 3 4 9 10 13 14 15: 52.3 a.u.
2'F-ANA at 1 3 5 8 10 12 15: 50.8 a.u.
2'F-ANA at 1 3 4 5 7 9 13 15: 48.9 a.u.
2'F-ANA at 3 6 8 9 11 12 13: 1080 a.u.
2'F-ANA at 1 2 4 6 8 10 14: 45.1 a.u.
2'F-ANA at 4 7 10 11 12 14 15: 64.2 a.u.
2'F-ANA at 1 5 6 8 11 12 14 15: 47.8 a.u.
2'F-ANA at 1 5 7 10 11 14 15: 45.8 a.u.
2'F-ANA at 1 2 3 4 8 10 11 12 13: 60.3 a.u.
2'F-ANA at 2 3 4 5 8 9 13 14 15: 50.1 a.u.
2'F-ANA at 3 5 6 7 9 10 11 12 14 15: 50.5 a.u.
2'F-ANA at 2 3 4 5 9 12: 199 a.u.

Study 6
Target: Interferon regulatory factor 7, full length, phosphomimetic (IRF7, Homo sapiens, UniProt Q92985, residues 1-503, S101K/S471D/S472D/S475D/S476D/S477D/S483D/S484D/S487D)
Sequence of UniProt Q92985 (whole entry, unmodified, looked up): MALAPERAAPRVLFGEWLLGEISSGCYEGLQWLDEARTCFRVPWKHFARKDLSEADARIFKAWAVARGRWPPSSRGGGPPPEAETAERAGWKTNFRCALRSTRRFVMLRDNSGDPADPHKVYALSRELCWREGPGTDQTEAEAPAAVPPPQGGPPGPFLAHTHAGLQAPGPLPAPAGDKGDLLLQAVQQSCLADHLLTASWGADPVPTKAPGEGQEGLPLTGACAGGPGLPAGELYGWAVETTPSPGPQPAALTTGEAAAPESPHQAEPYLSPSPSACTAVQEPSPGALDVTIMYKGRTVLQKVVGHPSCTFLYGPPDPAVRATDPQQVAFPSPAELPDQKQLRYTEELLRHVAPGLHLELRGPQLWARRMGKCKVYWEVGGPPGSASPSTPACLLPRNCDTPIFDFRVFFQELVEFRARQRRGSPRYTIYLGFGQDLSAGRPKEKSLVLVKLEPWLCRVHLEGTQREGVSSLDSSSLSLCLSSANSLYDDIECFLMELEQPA
Technique: protein-binding microarray
Molecule type: double-stranded DNA, one strand shown
Matrix: in vitro
Tested at: 250 nM
Notes: 60-bp whole probe
Together with: salmon DNA 0.4 mg/ml
Relative to: random background probes
Direction: higher = stronger binding
Quantity: log fluorescence
Constant ends, left off below: GCCTAGCAC … GTCTTGATTCGCTTGACGCTGCTG
GTCGGTATCGGTTTCGGGACGTGCTAG: 7.81 z-score
GAATCTCCCATTATATTTTAGTGCTAG: 0.952 z-score
GTGTTTTGCCCTATTTAAGAGTGCTAG: 2.31 z-score
TTAGGTCTCCTTCTCCTTGAGTGCTAG: 0.43 z-score
TTAGGTATCGGACTGGGTAAGTGCTAG: 0.256 z-score
TTAGGTATCCCTTTCCTTTAGTGCTAG: 1.2 z-score
GACGATCTGAGTTTCGAGACGTGCTAG: 2.89 z-score
AAATGATTGGTTGAACATGAGTGCTAG: -0.405 z-score
TCATTTCTCAACCATTTTACTGTGCTA: 2.16 z-score
GACGATCTCAGACTGGATACGTGCTAG: -0.287 z-score
GACGAACTGCGTTTCGAGACGTGCTAG: 0.621 z-score
ATAGGACTGGGGTATCGGTTAGTGCTA: 0.252 z-score
CCAGGAAAAGGGATTCAGTTGTGCTAG: 0.248 z-score
TGCTTTCTCTTTCACTGCTGGTGCTAG: 3.25 z-score
TTAGATTTCAGTCTCGATGAGTGCTAG: 0.488 z-score
TTAGATATGGGGTATCGATTAGTGCTA: 0.462 z-score
AGACAGTTGAGTTCTGTTGCAGTGCTA: -0.566 z-score

A few entries again (study 3):
TACCGGTA: -0.096
ACCCAGAC: -0.193
AAATGGAA: 0.134
AATGAGGG: -0.0697
CGGCGTTC: -0.324
